Published values from different studies.
Lines come from different studies, so protocols differ. Values joined by “and” are separate records of one study, mostly repeats; a detail may differ.
Target: Ephrin type-B receptor 2 (EPHB2, Homo sapiens, UniProt P29323)

Cc1ccc(-c2c(/C=C(\C#N)C(=O)NC(C)C)n(CCCO)c3ncnc(N)c23)cc1  remaining binding (cell-free assay, competition with immobilised ligand; 1 µM): 100%
COCC12C(=O)NC3C4(C(OC)CC1O)C1CC5(O)C(OC)C(O)C(OC(C)=O)(C1C5OC(=O)c1ccccc1)C3(O)C(OC)C24 (stereo not shown)  remaining activity (kinase activity, inhibitor, ProQinase kinase profiling; 25 µM; baseline: control): 99% and 94%
C=CC(=O)N1Cc2nc(-c3cc(-c4cc(Cl)cnc4Cl)c(F)cc3F)n(-c3ccncn3)c2C1  inhibition (cell-free assay; 1 µM): 7.8%
CCN1CCN(Cc2ccc(NC(=O)c3ccc(C)c(NC(=O)c4cncc(-c5cccs5)c4)c3)cc2C(F)(F)F)CC1  remaining binding (binding, competition with immobilised ligand; 1 µM): 3.8%
CNC1C[S+]2CC[S+]3CC[S+](C1)[Ru-4]321([N]=C=S)[n]2c3ccc(OC)cc3c3c4c(c5cc(F)c[n+]1c5c32)C(=O)NC4=O (stereo not shown)  remaining binding (KinomeScan; 0.1 µM; baseline: untreated): 100%
C=CC(=O)N1CCc2ccc(-n3c(=O)ccc4cnc5ccc(-c6cnn(C)c6)cc5c43)cc21  remaining binding (KINOMEscan; 1 µM; baseline: DMSO control): 100%
CN1CCN(Cc2ccc(-c3ccc(CO[C@H]4CCC[C@@H]4NC(=O)c4cc(-c5cnn(C)c5)cnc4N)cc3)cc2)CC1  inhibition (enzyme activity, inhibitor; 0.1 µM): 3%
CN1CC[C@@H](COc2cnc(C#N)cc2-c2ccn3nc(NC(=O)C4CC4)cc3c2)C1  inhibition (enzyme activity, inhibitor; 1 µM): -6%
COc1c(Cl)cccc1Nc1c(-c2ccncc2C#C[C@@]2(C)CCCN2C(=O)/C=C/CN(C)C)[nH]c2c1C(=O)NCC2  remaining binding (cell-free assay, competition with immobilised ligand; 3 µM): 85%
Cc1cccc(O[C@H]2CCC[C@@H](C(C)CNCc3ccncc3)C2)c1 (relative stereo)  inhibition (kinase activity, kinome panel screening; 10 µM): -34%
NC(=O)C[C@H]1CCc2sc3ncnc(O[C@H]4CC[C@H](N5CCOCC5)CC4)c3c21  inhibition (enzyme activity, inhibitor; 10 µM): 8%
COc1cc(Nc2nccc(-c3cnn4nc(OC)ccc34)n2)cc(C(F)(F)F)c1  remaining binding (binding, competition with immobilised ligand; 1 µM): 100%
C=CC(=O)Nc1cccc(-c2cnc3[nH]cc(C(=O)NC(C)(C)C)c3n2)c1  inhibition (kinase activity; 0.1 µM): -2% and -3%
Cc1cnc2nc1Nc1cccc(c1)COC/C=C/COCc1cc(ccc1OCCN1CCOCC1)N2  percent of control (concentration not given): 100%
COc1ccc(NC(=O)Nc2ccc3c(c2)C(=O)N(C(C)CO)CC(C)C(CN(C)Cc2ccc4c(c2)OCO4)O3)cc1 (stereo not shown)  remaining activity (kinase activity, KinaseProfiler; 0.03 µM, species human; baseline: control): 102%
COc1c(OCCCN2CCOCC2)ccc2c1N=C(NC(=O)c1cnc(N)nc1)N1CCN=C21  remaining activity (kinase activity, inhibitor; 1 µM; baseline: untreated control): 104%

Excerpt of the above:
COc1c(Cl)cccc1Nc1c(-c2ccncc2C#C[C@@]2(C)CCCN2C(=O)/C=C/CN(C)C)[nH]c2c1C(=O)NCC2  remaining binding (cell-free assay, competition with immobilised ligand; 3 µM): 85%
Cc1cccc(O[C@H]2CCC[C@@H](C(C)CNCc3ccncc3)C2)c1 (relative stereo)  inhibition (kinase activity, kinome panel screening; 10 µM): -34%
